Assay results collected from several papers.
Numbered parts are unrelated; each lists some results of a single study. Several values in a cell are separate wells, animals, samples, runs or records.
Sequence of UniProt P16234 (whole entry, looked up): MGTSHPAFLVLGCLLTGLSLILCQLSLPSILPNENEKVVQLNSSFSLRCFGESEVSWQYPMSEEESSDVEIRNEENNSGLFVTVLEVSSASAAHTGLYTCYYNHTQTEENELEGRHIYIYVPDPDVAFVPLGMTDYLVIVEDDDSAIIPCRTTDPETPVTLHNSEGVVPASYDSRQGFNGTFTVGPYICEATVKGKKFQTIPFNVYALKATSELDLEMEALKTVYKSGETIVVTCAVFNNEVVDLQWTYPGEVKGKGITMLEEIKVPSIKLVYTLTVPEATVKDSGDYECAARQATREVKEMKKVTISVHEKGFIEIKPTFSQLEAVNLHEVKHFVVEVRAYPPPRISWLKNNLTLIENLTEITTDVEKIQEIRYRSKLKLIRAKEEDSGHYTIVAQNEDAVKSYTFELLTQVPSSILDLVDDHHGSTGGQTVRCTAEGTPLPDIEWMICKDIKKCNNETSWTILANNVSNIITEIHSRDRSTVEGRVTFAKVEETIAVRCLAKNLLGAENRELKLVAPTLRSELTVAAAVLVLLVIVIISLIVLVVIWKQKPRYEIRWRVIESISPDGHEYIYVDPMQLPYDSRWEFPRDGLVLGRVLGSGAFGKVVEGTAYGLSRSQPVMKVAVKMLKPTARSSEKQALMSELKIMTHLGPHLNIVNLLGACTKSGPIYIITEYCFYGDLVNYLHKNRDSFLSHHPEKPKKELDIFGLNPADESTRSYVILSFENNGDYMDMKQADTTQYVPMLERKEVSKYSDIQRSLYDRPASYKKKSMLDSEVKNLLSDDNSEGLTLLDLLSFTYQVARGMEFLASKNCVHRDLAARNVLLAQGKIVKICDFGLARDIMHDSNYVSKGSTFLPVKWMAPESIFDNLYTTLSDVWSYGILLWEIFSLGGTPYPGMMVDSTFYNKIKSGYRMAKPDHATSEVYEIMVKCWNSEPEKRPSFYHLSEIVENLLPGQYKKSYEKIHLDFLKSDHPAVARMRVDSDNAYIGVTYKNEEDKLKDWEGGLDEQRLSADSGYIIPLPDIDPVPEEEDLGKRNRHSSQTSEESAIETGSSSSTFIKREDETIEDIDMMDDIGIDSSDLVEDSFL
Sequence of UniProt Q6DT37 (whole entry, looked up): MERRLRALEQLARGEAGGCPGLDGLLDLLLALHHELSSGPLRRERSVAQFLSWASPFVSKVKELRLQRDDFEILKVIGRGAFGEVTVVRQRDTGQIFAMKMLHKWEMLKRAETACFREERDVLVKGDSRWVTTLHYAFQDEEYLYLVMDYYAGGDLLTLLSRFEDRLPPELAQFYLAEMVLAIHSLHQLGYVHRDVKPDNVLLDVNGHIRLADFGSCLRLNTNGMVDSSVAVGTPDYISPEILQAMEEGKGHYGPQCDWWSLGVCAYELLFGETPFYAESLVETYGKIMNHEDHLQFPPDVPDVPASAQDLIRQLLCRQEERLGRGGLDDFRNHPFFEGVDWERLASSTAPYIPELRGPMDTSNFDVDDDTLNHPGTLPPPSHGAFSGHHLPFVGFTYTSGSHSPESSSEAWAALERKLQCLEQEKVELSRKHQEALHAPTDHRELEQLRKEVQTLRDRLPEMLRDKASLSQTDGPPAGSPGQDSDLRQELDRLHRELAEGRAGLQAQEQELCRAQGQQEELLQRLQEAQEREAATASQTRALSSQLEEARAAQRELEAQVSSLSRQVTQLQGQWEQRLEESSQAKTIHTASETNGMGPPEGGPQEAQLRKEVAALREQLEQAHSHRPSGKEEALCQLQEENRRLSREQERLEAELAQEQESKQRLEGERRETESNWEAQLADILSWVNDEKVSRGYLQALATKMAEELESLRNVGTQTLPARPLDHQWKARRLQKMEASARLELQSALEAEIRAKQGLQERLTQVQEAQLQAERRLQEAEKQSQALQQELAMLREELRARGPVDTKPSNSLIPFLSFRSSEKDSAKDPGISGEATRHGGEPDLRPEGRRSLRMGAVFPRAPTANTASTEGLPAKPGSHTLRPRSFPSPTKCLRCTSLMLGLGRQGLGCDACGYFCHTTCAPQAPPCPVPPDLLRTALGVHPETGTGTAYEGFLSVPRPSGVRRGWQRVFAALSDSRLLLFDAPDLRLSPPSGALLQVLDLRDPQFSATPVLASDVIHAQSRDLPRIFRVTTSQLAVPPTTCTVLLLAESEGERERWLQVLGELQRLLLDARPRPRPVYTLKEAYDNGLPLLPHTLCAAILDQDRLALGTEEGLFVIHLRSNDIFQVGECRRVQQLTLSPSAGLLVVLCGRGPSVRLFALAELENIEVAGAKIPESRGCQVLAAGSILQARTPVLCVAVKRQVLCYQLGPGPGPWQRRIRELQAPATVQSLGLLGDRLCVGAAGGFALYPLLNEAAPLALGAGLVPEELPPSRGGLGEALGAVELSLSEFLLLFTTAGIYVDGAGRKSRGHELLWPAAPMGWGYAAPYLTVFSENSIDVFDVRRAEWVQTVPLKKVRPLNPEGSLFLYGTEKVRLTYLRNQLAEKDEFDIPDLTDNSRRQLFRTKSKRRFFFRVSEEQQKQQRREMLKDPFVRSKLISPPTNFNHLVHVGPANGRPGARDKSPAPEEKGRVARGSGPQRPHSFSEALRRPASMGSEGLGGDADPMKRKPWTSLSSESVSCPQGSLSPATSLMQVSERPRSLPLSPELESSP
Sequence of UniProt Q9Y6M4 (whole entry, looked up): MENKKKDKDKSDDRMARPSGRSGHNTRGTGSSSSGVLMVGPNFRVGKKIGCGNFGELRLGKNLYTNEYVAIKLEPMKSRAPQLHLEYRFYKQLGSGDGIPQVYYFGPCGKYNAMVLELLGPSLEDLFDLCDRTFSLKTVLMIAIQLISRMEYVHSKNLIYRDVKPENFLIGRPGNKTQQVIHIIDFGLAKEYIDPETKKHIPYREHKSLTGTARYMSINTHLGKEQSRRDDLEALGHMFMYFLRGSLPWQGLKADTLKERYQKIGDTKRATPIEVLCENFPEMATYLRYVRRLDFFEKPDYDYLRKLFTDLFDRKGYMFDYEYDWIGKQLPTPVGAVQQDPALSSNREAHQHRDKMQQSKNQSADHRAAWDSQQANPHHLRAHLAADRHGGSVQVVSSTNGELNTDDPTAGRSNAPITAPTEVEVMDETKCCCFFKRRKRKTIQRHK
Sequence of UniProt Q15835 (whole entry, looked up): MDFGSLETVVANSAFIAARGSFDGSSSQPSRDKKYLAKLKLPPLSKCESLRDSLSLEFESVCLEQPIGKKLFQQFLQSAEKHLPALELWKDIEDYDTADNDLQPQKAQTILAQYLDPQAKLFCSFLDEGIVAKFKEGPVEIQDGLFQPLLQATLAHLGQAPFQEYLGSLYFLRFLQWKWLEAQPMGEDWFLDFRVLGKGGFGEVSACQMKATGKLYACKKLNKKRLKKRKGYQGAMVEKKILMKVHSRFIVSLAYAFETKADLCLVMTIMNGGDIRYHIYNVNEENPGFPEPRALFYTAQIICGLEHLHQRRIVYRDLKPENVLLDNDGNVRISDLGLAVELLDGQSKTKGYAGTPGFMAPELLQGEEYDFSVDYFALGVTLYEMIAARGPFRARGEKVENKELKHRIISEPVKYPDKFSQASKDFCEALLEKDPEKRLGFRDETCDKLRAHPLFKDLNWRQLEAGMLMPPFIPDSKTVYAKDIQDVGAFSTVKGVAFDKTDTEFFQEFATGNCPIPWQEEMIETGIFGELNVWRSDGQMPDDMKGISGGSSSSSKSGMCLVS
Sequence of UniProt Q8IVW4 (whole entry, looked up): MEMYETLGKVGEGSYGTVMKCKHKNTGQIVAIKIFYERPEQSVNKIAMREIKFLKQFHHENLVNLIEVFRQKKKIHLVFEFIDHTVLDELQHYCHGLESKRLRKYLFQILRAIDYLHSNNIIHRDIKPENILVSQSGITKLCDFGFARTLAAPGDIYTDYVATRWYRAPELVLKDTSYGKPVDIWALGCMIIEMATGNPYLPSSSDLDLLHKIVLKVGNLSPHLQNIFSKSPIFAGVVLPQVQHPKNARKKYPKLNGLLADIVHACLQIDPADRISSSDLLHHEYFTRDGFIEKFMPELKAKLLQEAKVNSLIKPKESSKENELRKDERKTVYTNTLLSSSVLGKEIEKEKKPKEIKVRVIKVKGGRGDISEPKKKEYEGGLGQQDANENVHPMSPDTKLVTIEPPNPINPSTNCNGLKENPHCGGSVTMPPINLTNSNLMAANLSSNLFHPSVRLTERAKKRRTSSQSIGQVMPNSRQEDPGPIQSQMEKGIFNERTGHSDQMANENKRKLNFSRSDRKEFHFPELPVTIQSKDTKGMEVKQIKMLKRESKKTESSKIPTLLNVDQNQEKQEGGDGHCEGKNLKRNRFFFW
Sequence of UniProt P28482 (whole entry, looked up): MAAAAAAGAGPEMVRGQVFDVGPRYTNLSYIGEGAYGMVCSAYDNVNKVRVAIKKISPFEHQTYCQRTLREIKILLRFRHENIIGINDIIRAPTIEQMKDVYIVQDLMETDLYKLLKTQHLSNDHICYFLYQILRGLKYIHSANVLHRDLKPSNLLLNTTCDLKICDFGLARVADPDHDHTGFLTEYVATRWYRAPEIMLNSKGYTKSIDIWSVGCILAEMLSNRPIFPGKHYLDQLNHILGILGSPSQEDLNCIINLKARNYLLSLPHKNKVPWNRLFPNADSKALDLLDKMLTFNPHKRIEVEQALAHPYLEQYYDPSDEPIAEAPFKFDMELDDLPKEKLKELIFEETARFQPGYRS

Sample 1 — host: C57BL/6 CES1-/- mice, EL4 tumour; matrix: EL4 tumour; route: subcutaneous; dose: 0.3 mg/kg/day DON equivalent; time: 5 days
Compound: CC(=O)N[C@@H](Cc1c[nH]c2ccccc12)C(=O)N[C@@H](CCC(=O)C=[N+]=[N-])C(=O)OC(C)C
| test | conditions | how to read | metabolite peak intensity |
| --- | --- | --- | --- |
| UPLC-MS/MS, item: AMP | – | – | 3.37e+07 a.u. and 4.51e+07 a.u. and 4.49e+07 a.u. and 2.6e+07 a.u. and 3.11e+07 a.u. and 3.16e+07 a.u. |
| UPLC-MS/MS metabolomics, item: N-acetylarginine | normalised to tissue mass | higher = more metabolite | 1.33e+06 a.u. and 1.57e+06 a.u. and 1.69e+06 a.u. and 1.41e+06 a.u. and 1.32e+06 a.u. and 1.38e+06 a.u. |
| UPLC-MS/MS, item: 4-methyl-2-oxopentanoate | – | – | 172000 a.u. and 270000 a.u. and 135000 a.u. and 177000 a.u. and 147000 a.u. |
| LC-MS/MS metabolomics, item: phenol sulfate | – | higher = more metabolite | 969000 a.u. and 2.42e+06 a.u. and 3.51e+06 a.u. and 2.1e+06 a.u. and 1.2e+06 a.u. and 1.74e+06 a.u. |

Sample 2 — organism: Sarcocystis neurona; effect on: parasite activity; concentration: 10 µM; time: 96 h
| Compound | activity class |
| --- | --- |
| COC(=O)CCc1ccc(OCC(O)CNC(C)C)cc1 (stereo not shown) | inactive |
| C[C@]12C=CC(=O)C=C1CC[C@@H]1[C@@H]2[C@@H](O)C[C@@]2(C)[C@H]1CC[C@]2(O)C(=O)CO | inactive |
| OCCN(CCO)c1nc(N2CCCCC2)c2nc(N(CCO)CCO)nc(N3CCCCC3)c2n1 | inactive |
| Cc1nccn1CC1CCc2c(c3ccccc3n2C)C1=O (stereo not shown) | inactive |
| CC(=O)N1CCN(c2ccc(OCC3COC(Cn4ccnc4)(c4ccc(Cl)cc4Cl)O3)cc2)CC1 (stereo not shown) | inactive |
| Clc1ccc(COC(Cn2ccnc2)c2ccc(Cl)cc2Cl)cc1 (stereo not shown) | inactive |

Sample 3 — concentration: 1 µM
Compound: CN([C@@H]1CCc2c(CC(=O)O)c3ccccc3n2C1)S(=O)(=O)c1ccc(F)cc1
| target | test | remaining binding |
| --- | --- | --- |
| ZAP70 (Homo sapiens, UniProt P43403) | cell-free assay, competition with immobilised ligand | 100% |
| GRK1 (Homo sapiens, UniProt Q15835) | cell-free assay, competition with immobilised ligand | 88% |
| CDC42BPG (Homo sapiens, UniProt Q6DT37) | competition binding | 100% |
| CDKL3 (Homo sapiens, UniProt Q8IVW4) | cell-free assay, competition with immobilised ligand | 85% |
| Ribosomal protein S6 kinase alpha-6, N-terminal kinase domain (RPS6KA6, Homo sapiens, UniProt Q9UK32) | cell-free assay, competition with immobilised ligand | 100% |
| PIP5K1C (Homo sapiens, UniProt O60331) | cell-free assay, competition with immobilised ligand | 100% |
| DYRK2 (Homo sapiens, UniProt Q92630) | cell-free assay, competition with immobilised ligand | 95% |
| PDGFRA (Homo sapiens, UniProt P16234) | cell-free assay, competition with immobilised ligand | 100% |
| CSNK1G3 (Homo sapiens, UniProt Q9Y6M4) | cell-free assay, competition with immobilised ligand | 100% |
| EPHA4 (Homo sapiens, UniProt P54764) | cell-free assay, competition with immobilised ligand | 87% |
| IKBKB (Homo sapiens, UniProt O14920) | cell-free assay, competition with immobilised ligand | 98% |
| MAP3K20 (Homo sapiens, UniProt Q9NYL2) | cell-free assay, competition with immobilised ligand | 99% |
| MAPK1 (Homo sapiens, UniProt P28482) | cell-free assay, competition with immobilised ligand | 97% |

Sample 4 — effect on: enzyme activity; mode: inhibitor; concentration: 0.5 µM; reference: control
Target: Mitogen-activated protein kinase 3 (MAPK3, Homo sapiens, UniProt P27361)
Sequence of UniProt P27361 (whole entry, looked up): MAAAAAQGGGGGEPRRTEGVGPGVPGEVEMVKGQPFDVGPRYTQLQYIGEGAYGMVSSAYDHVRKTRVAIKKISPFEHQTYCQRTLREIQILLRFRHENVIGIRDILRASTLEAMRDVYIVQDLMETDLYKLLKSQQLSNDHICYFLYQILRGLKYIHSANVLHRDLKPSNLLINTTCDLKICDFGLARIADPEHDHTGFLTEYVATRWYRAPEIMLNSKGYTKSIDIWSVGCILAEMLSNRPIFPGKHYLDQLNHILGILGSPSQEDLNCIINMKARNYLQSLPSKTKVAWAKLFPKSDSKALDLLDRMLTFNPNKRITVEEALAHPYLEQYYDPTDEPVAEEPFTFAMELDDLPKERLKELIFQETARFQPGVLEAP
| SMILES | remaining activity |
| --- | --- |
| COc1ccc(C(=O)Nc2sc3c(c2C(N)=O)CCCC3)cc1OC | 95.2% |
| O=C(O)c1ccc2c3c1cccc3c(=O)n1c3ccccc3nc21 | 102% |
| COc1ccc(OC)c2c(=S)c3ccccc3[nH]c12 | 103% |
| CO[C@H]1C[C@@H]2CC[C@@H](C)[C@@](O)(O2)C(=O)C(=O)N2CCCC[C@H]2C(=O)O[C@H]([C@H](C)C[C@@H]2CC[C@@H](O)[C@H](OC)C2)CC(=O)[C@H](C)/C=C(\C)[C@@H](O)[C@@H](OC)C(=O)[C@H](C)C[C@H](C)/C=C/C=C/C=C/1C | 104% |
| NCCNc1ncc(C(N)=O)c(Nc2cccc(C(F)(F)F)c2)n1 | 100% |
| Cn1c2ccccc2c2c3c(c4c5ccccc5n(CCC#N)c4c21)CNC3=O | 72.5% |
| O=S(=O)(c1cccc2cnccc12)N1CCCNCC1 | 96.1% |
| Cn1sc(=O)n(Cc2ccccc2)c1=O | 90.4% |
| CCOC(=O)c1c(C)[nH]c(/C=C2\C(=O)Nc3ccccc32)c1C | 101% |
| O=C1NC(=O)C(c2cn(CCCn3ccnc3)c3ccccc23)=C1Nc1ccccc1 | 103% |
| OCC(O)CCON=C1C(c2c(O)[nH]c3ccccc23)=Nc2ccccc21 (stereo not shown) | 98.7% |
| C#Cc1cccc(Nc2ncnc3cc(OCCOC)c(OCCOC)cc23)c1 | 101% |
| COc1ccc(CNC(=O)Nc2ncc([N+](=O)[O-])s2)cc1 | 103% |
| Nc1[nH]nc2nc3ccccc3nc12 | 113% |
| Cc1nc(-c2ccccc2)c(-c2ccncc2)o1 | 103% |
| Nc1ccc2ncnc(NCCc3ccc(Oc4ccccc4)cc3)c2c1 | 105% |
| Cc1ccc(Nc2nccc(N(C)c3ccc4c(C)n(C)nc4c3)n2)cc1S(N)(=O)=O | 102% |
